Experimental data from different studies.
Each line is one published result; not all experiments were run side by side. “And” joins repeats or separate records; there may be more than shown. ± marks the error that the study gave.
Cell line: A549

| SMILES | test | setting | IC50 |
| --- | --- | --- | --- |
| CC(=O)[C@@H]1CCCN1C(=O)[C@@H]1CCCN1C(=O)OC(C)(C)C | cell growth, sulforhodamine B |  | 4.39 µM and 5.08 µM and 6.12 µM |
| C=C1C[C@](OC)([C@H](OCOC/C=C/B2OC(CC)(CC)C(CC)(CC)O2)C(=O)NC[C@@H]2C[C@@H](OC)C(C)(C)[C@@H](C[C@@H](COC)OC)O2)O[C@H](C)[C@@H]1C | cell viability, sulforhodamine B | 72 h, 37 °C, without H2O2 | 0.026 ± 0.006 µM |
| COc1ccc2c(c1NC(=O)OCc1cnc([N+](=O)[O-])n1C)CCC=C2c1cc(OC)c(OC)c(OC)c1 | cell growth, SRB | 4 h exposure then 120 h oxic, oxic exposure then drug removal | 5.59 ± 1.39 µM |
| Nc1nc(Nc2ccc3c(c2)CC[C@@H](N2CCCC2)CC3)nn1-c1cc2c(nn1)-c1ccccc1CCC2 | inhibitor, Western blot, refers to: phospho-Akt |  | 2.37 µM |
| COc1ccc2nccc(Cc3cccc(-c4ccc(COP(=O)(O)O)cc4)c3)c2c1 | mitochondrial oxygen consumption, Seahorse XF96 |  | 2.2 µM |
| C#CCCCC[C@H](C)C[C@@H](C)C(=O)N1C(=O)OC[C@H]1Cc1ccccc1 | cell growth, sulforhodamine B |  | 132 µM and 154 µM and 186 µM |
| COc1cc(C2=CCCc3c2ccc(OC)c3OCc2ccc([N+](=O)[O-])cc2)cc(OC)c1OC | cell growth, SRB | 4 h exposure then 120 h oxic, oxic exposure then drug removal | 0.25 ± 0.02 µM |
| COc1ccc2nccc(Cc3cccc(-c4cnn(C5COC5)c4)c3)c2c1 | mitochondrial oxygen consumption rate, Seahorse XF96 |  | 1.9 µM |
| COc1ccc2c(c1NC(=O)OCc1ncc([N+](=O)[O-])n1C)CCC=C2c1cc(OC)c(OC)c(OC)c1 | cell growth, SRB | 4 h exposure then 120 h oxic, oxic exposure then drug removal | > 95 µM |
| COc1ccc(Cc2nccc3cc(OC)c(OC)cc23)cc1OC | mitochondrial oxygen consumption, Seahorse XF96 |  | 25 µM |
| CN(C)C/C=C/C(=O)Nc1cc2c(Nc3ccc(F)c(Cl)c3)ncnc2cc1O[C@H]1CCOC1 |  |  | 2.21 ± 0.02 µM |
| COc1cc(C2=CCCc3c2ccc(OC)c3OC(C)c2ccc([N+](=O)[O-])s2)cc(OC)c1OC (stereo not drawn) | cell growth, SRB | 4 h exposure then 120 h oxic, oxic exposure then drug removal | 2.99 ± 1.19 µM |
